Experimental data from different studies.
Numbered parts are unrelated; each lists some results of a single study. Positions count from the first letter of the parent shown.

Sample 1
Target: TAR DNA-binding protein 43, full length, His tag (TARDBP, Homo sapiens, UniProt Q13148, residues 1-414)
Method: RNA Bind-n-Seq
Form: RNA
Matrix: in vitro
Concentration: 20 nM
Notes: 6-mer, flanks averaged, single round
Together with: 150 mM KCl
Baseline: input library
Reading: higher = stronger binding
| Oligonucleotide | 6-mer enrichment (R) |
| --- | --- |
| CGCUGA | 0.78 |
| ACCGAC | 0.653 |
| UUUCUC | 0.577 |
| ACUACC | 0.589 |
| GGGCAA | 2.35 |
| GCACAG | 1.07 |
| GUGGCA | 1.55 |
| ACUAUU | 0.597 |

Sample 2
Target: Sal-like protein 4, full length isoform A (SALL4, Homo sapiens, UniProt Q9UJQ4, residues 1-1053)
Chain of UniProt Q9UJQ4 (whole entry, looked up): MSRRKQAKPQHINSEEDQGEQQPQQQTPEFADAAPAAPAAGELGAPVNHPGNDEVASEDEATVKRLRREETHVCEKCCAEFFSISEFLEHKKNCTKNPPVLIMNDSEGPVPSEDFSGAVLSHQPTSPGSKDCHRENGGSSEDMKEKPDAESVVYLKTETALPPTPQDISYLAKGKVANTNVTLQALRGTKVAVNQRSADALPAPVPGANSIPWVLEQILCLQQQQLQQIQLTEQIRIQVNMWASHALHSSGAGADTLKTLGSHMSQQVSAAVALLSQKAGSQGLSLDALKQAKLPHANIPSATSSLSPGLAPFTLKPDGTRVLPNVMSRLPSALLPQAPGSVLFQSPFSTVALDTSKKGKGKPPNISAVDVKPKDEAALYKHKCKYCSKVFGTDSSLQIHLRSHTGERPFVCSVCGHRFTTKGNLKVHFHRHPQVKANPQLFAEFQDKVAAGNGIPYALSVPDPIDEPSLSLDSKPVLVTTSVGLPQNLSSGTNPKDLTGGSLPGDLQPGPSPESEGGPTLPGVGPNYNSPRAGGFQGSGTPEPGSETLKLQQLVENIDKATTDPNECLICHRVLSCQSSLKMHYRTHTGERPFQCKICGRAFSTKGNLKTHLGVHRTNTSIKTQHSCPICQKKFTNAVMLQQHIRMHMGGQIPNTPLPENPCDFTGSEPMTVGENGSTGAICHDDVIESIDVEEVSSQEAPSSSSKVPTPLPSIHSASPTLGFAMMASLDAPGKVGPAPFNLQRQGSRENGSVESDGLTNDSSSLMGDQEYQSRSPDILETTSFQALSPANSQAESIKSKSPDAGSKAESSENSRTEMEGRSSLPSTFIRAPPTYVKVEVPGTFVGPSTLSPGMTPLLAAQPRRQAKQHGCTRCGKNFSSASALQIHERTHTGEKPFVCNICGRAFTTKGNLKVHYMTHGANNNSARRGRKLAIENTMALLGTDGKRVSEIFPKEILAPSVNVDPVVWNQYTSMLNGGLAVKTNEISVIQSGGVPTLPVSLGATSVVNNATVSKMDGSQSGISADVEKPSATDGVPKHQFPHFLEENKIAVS
Method: universal PBM
Form: double-stranded DNA, one strand shown
Matrix: in vitro
Concentration: 600 nM
Notes: 8-mer, flanks averaged, mean of replicates
Reading: higher = stronger binding
| Oligonucleotide | E-score |
| --- | --- |
| ACGCTCCC | -0.174 |
| GATGTGAA | 0.227 |
| CTCACCCC | -0.173 |
| GCCGCCTA | -0.317 |
| CTCTTAAC | 0.00285 |
| AAACTAGG | -0.037 |
| AGTGAGGG | -0.152 |
| CGGCGGGC | -0.373 |

Further values, each from its own experiment
P1: viral docking peptide; KGVKRKLFAEDSS; partner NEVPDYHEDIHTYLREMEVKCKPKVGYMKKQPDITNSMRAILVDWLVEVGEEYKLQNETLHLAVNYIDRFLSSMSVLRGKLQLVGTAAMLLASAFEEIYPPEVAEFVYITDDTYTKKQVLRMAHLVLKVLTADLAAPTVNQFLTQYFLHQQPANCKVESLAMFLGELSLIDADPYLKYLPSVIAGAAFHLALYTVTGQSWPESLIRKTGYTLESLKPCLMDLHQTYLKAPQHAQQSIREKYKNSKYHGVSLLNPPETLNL
| Substance | tested on | test | test system | conditions | scale | quantity | value |
| --- | --- | --- | --- | --- | --- | --- | --- |
| NIPSNAP2 (Homo sapiens, UniProt O75323) | NIPSNAP1 (Homo sapiens, UniProt Q9BPW8) | cross-linking MS | cells | together with: BSPNO | – | cross-linked residues | K281 to K143 |
| P1 F8T | CCNA2, cyclin fold, Cln2 fusion (human) | yeast growth competition, sequencing | yeast | strong parent motif | baseline: not given, higher = stronger binding | normalised enrichment score | 0.424 |

Some of these lines once more (sample 2):
| Oligonucleotide | E-score |
| --- | --- |
| CTCACCCC | -0.173 |
| AGTGAGGG | -0.152 |
| CTCTTAAC | 0.00285 |
